Measured values from different studies.
Lines come from different studies, so protocols differ. Numbers after ± are the reported error.
TRPM8: Transient receptor potential cation channel subfamily M member 8 (TRPM8, Homo sapiens, UniProt Q7Z2W7)
Sequence of UniProt Q7Z2W7 (whole entry, looked up): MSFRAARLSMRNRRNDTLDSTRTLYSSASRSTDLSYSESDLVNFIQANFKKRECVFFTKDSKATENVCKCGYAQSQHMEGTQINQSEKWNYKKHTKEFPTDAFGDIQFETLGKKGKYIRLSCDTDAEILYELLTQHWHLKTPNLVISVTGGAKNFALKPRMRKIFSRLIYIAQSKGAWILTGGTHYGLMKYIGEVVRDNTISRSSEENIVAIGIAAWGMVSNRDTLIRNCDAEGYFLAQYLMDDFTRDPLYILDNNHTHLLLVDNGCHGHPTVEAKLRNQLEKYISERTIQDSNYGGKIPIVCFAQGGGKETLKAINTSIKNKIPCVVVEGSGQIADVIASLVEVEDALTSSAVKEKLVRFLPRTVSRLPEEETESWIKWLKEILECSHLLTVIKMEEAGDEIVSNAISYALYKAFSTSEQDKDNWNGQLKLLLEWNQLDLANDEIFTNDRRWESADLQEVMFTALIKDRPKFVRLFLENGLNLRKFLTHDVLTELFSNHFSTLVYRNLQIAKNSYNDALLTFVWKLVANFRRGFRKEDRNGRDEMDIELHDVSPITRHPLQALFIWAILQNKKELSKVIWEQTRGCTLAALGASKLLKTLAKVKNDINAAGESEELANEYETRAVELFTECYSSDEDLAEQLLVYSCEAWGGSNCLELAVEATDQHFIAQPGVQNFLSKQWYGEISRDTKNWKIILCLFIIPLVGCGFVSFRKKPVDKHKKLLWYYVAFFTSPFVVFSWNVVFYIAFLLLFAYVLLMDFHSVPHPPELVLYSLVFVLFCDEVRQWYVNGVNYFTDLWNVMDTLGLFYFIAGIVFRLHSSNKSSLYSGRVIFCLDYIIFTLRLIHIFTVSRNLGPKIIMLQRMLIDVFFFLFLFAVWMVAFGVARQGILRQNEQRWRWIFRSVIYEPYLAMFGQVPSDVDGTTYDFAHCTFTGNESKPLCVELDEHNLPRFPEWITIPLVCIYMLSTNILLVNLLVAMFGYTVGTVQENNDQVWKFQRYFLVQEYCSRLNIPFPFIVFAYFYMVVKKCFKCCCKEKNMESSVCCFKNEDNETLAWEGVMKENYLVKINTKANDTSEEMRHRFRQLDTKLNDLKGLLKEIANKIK
spsB: Signal peptidase IB (spsB, Staphylococcus aureus, UniProt Q5HHB9)
Sequence of UniProt Q5HHB9 (whole entry, looked up): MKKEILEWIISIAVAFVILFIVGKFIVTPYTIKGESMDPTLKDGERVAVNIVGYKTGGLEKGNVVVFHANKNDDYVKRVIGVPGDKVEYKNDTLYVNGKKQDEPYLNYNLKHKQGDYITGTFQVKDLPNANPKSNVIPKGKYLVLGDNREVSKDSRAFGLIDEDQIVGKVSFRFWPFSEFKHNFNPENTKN
Sequence of UniProt P06239 (whole entry, looked up): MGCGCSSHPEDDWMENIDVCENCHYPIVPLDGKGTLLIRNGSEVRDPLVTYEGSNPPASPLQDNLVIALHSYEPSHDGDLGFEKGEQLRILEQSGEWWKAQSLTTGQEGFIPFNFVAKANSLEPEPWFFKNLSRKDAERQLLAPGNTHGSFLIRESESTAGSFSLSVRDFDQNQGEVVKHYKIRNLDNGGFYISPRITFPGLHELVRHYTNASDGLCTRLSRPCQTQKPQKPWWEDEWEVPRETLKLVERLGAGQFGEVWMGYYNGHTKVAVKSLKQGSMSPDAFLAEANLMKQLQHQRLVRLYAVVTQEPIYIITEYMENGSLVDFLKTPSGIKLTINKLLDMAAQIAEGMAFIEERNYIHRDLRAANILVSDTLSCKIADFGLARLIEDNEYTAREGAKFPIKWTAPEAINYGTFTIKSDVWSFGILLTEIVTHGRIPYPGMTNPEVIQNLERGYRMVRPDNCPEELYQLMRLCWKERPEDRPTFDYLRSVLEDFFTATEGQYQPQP
Sequence of UniProt Q9H4B4 (whole entry, looked up): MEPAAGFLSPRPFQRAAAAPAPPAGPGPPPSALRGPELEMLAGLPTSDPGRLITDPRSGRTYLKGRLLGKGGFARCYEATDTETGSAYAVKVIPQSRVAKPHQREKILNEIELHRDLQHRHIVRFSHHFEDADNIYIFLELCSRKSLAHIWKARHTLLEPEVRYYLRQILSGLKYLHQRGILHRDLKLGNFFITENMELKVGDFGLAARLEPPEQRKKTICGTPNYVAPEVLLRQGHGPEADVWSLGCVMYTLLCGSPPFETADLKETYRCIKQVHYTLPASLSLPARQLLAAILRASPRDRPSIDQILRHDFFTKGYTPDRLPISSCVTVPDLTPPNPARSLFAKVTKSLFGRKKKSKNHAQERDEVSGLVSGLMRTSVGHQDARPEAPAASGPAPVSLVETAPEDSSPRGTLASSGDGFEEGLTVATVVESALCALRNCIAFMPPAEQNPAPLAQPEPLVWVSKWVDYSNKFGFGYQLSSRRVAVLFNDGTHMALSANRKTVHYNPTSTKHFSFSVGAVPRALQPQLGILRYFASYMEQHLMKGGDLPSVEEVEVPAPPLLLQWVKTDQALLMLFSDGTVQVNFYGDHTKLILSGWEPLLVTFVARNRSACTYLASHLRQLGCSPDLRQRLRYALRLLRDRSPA
Sequence of UniProt Q8N752 (whole entry, looked up): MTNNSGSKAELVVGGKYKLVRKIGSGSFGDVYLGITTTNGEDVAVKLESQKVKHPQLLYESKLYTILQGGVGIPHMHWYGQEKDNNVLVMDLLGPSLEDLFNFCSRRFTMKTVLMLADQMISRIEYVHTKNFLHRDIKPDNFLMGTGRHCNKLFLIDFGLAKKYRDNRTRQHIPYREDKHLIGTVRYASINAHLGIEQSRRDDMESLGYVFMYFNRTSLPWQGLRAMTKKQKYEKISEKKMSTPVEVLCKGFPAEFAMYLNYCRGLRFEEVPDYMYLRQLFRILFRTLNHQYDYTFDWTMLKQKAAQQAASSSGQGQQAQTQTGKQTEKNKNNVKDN
Sequence of UniProt Q9UEE5 (whole entry, looked up): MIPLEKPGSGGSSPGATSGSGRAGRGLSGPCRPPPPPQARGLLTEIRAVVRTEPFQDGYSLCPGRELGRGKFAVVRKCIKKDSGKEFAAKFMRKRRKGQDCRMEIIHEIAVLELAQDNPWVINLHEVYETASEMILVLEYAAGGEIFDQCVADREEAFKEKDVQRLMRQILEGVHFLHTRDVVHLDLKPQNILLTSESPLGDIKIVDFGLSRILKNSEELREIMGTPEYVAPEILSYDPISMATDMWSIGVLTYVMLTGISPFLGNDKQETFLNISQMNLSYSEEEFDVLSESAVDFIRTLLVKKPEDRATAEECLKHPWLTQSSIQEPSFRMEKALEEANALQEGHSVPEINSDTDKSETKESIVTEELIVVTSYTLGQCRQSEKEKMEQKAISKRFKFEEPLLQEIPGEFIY

The remaining activity of `C=CC(=O)N1CCC[C@@H](n2nc(-c3ccc(Oc4ccccc4)cc3)c3c(N)ncnc32)C1` is reported as 57.8% (CSNK1A1L (Homo sapiens, UniProt Q8N752); 10 µM).
`COc1cc(-c2cncc3c2CN(C)Cc2cc(N4CCNCC4)ccc2-3)cc(OC)c1OC` gave a remaining activity of 107% (LTK (Homo sapiens, UniProt P29376); kinase activity; 1 µM, human enzyme, added: ATP 10 µM; relative to: DMSO control).
`COc1ccc2c(c1)c(C1=C(c3c[nH]c4ccccc34)C(=O)NC1=O)cn2CCCN(C)C` has a remaining activity of 93.7 ± 8.89% (TRPM8; antagonist; HEK293; 5 µM; relative to: control).
With `COc1ccc(F)cc1C(=O)NCc1ccc(-c2nn([C@@H](C)C(F)(F)F)c(N)c2C(N)=O)cc1` the remaining activity was 89.6 ± 0.6% (FLT3 (Homo sapiens, UniProt P36888); kinase activity, inhibitor, HotSpot radiometric; 1000 nM, added: ATP at Km).
With `O=C(NC1CCC1)c1ccc2nc(-c3cccc(NS(=O)(=O)NCCN4CCCCC4)c3)cn2c1` the remaining activity was 54% (FLT3 (Homo sapiens, UniProt P36888, R834Q); enzyme activity; 10 µM).
With `CO[C@H]1[C@@H](OC)C[C@H](C)[C@@H](OC)C2=CC(=O)C=C(NC(=O)/C(C)=C/C=C\[C@H](OC)[C@@H](OC(N)=O)/C(C)=C/[C@@H]1C)C2=O` the remaining activity was 86.4 ± 10.4% (TRPM8; antagonist; HEK293; 5 µM).
With `O=C(O)c1ccc(Nc2ncc3c(n2)-c2ccc(Cl)cc2C(c2c(F)cccc2F)=NC3)cc1` the remaining activity was 108% (human PAK6(h); kinase activity; 1 µM).
For `CN(C(=O)Nc1ccc(Cl)c(C(F)(F)F)c1)c1ccc2c(c1)OC(F)(F)O2`, the remaining activity was 139% (spsB; peptidase activity, activator, FRET peptide cleavage; Staphylococcus aureus, membranes; 50 µM; relative to: DMSO).
`O=C1c2ccccc2-c2n[nH]c3cccc1c23` has a remaining activity of 86.9 ± 15% (TRPM8; antagonist; HEK293; 5 µM; relative to: control).
`Cc1cc(Nc2cc(N3CCN(C)CC3)nc(Sc3ccc(NC(=O)C4CC4)cc3)n2)[nH]n1` has a remaining activity of 97% (STK17A (Homo sapiens, UniProt Q9UEE5); kinase activity, KinaseProfiler; 0.03 µM, species human; relative to: control).
With `CNc1ncc2c(/C=C/C(=O)N3CCC(OC)CC3)nn(Cc3cccc(C(F)(F)F)c3)c2n1` the remaining activity was 116% (STK39 (Homo sapiens, UniProt Q9UEW8); kinase activity, inhibitor; 1 µM; relative to: untreated control).
The remaining activity of `O=C1NC(=O)/C(=C/c2ccc(-c3ccc(F)cc3O)o2)S1` is reported as 110% (LCK (Homo sapiens, UniProt P06239); enzyme activity; 10 µM).
With `O=C(Nc1cccc(NC(=O)Nc2ccc(Cl)c(C(F)(F)F)c2)c1)Nc1ccc(Cl)c(C(F)(F)F)c1` the remaining activity was 174% (spsB; peptidase activity, activator, FRET peptide cleavage; Staphylococcus aureus, membranes; 100 µM; relative to: DMSO).
With `O=C(O)c1ccc2c3c1cccc3c(=O)n1c3ccccc3nc21` the remaining activity was 108 ± 6.09% (TRPM8; antagonist; HEK293; 5 µM; relative to: control).
With `O=C(Nc1ccc(Cc2ccccc2)cc1)Nc1ccc(Cl)c(C(F)(F)F)c1` the remaining activity was 176% (spsB; peptidase activity, activator, FRET peptide cleavage; Staphylococcus aureus, membranes; 100 µM; relative to: DMSO).
With `COc1cc(Nc2ncc3c(n2)-c2ccc(Cl)cc2C(c2c(F)cccc2OC)=NC3)ccc1C(=O)O` the remaining activity was 108% (MST1R; kinase activity; 1 µM).
`O=C(Nc1ccc(Cl)c(C(F)(F)F)c1)Nc1ccc2ccccc2c1` has a remaining activity of 126% (spsB; peptidase activity, activator, FRET peptide cleavage; Staphylococcus aureus, membranes; 10 µM; relative to: DMSO).
`COc1cc(F)ccc1-c1ncnc(Nc2cccc(C[S@](C)(=N)=O)c2)n1` gave a remaining activity of 87% (PLK3 (Homo sapiens, UniProt Q9H4B4); kinase activity; 10 µM, added: 10 µM ATP).
With `C[C@@H](N)[C@H]1CC[C@H](C(=O)Nc2ccncc2)CC1` the remaining activity was 107 ± 3.71% (TRPM8; antagonist; HEK293; 5 µM; relative to: control).
With `COc1cc(NC(=O)Nc2ccc(Cl)c(C(F)(F)F)c2)cc(OC)c1OC` the remaining activity was 118% (spsB; peptidase activity, activator, FRET peptide cleavage; Staphylococcus aureus, membranes; 10 µM; relative to: DMSO).
The remaining activity of `N#Cc1cnc2cnc(NCc3cccnc3)cc2c1Nc1ccc(F)c(Cl)c1` is reported as 94.5 ± 7.99% (TRPM8; antagonist; HEK293; 5 µM; relative to: control).
For `O=C(Nc1ccc2c(c1)CCC2)Nc1ccc(Cl)c(C(F)(F)F)c1`, the remaining activity was 118% (spsB; peptidase activity, activator, FRET peptide cleavage; Staphylococcus aureus, membranes; 100 µM; relative to: DMSO).
For `CN(C)C[C@H]1CCn2c(c(C3=C(c4cn(C)c5ccccc45)C(=O)NC3=O)c3ccccc32)C1`, the remaining activity was 88.6 ± 6.69% (TRPM8; antagonist; HEK293; 5 µM; relative to: control).
`CNC(=O)c1cc(Oc2ccc(N(C)C(=O)Nc3ccc(Cl)c(C(F)(F)F)c3)cc2)ccn1` gave a remaining activity of 117% (spsB; peptidase activity, activator, FRET peptide cleavage; Staphylococcus aureus, membranes; 50 µM; relative to: DMSO).
`COc1ccc(-c2cnc3c(-c4ccsc4)cnn3c2)cc1` has a remaining activity of 85.8 ± 7.46% (TRPM8; antagonist; HEK293; 5 µM; relative to: control).
The remaining activity of `CCc1ccc(NC(=O)Nc2ccc(Cl)c(C(F)(F)F)c2)cc1` is reported as 136% (spsB; peptidase activity, activator, FRET peptide cleavage; Staphylococcus aureus, membranes; 100 µM; relative to: DMSO).
